Results collected from several papers.
Each line is one published result; not all experiments were run side by side. Several values in a cell are separate wells, animals, samples, runs or records. ± marks the error that the study gave.

For `Cc1ccc(-n2cc(CSc3nc4ccccc4n3Cc3cn(-c4ccc(C)cc4)nn3)nn2)cc1`, the cytotoxicity was 89.3% (Caco-2; MTT; 250 ppm).
With `CC(=O)N1CCC[C@H]1C(=O)N[C@H](C(=O)NCC(=O)N[C@@H](CC(=O)O)C(=O)COC(=O)c1c(C)cccc1C)C(C)(C)C` the cell lysis was 26.1% and 51.7% (THP-1 cells, LPS-primed; pyroptosis, LDH release; 25 µM, LPS 1 µg/mL, 4 h, together with: nigericin 5 µM, 2 h).
Under protein level, `O=S(=O)(Nc1ccc(OC(F)(F)F)cc1)N1CCCC(C2c3ccccc3CCc3ccccc32)C1` (stereo not shown) is recorded as “decreased” (D425; immunoblot, item: CIP2A; concentration not given).
`O=c1cc(Cn2ccnc2)c2cc3c(cc2o1)CCC3`: “calcium mobilisation signal” 2.82 ± 1.66 (COS-7 (untransfected); 500 µM, unit not given; relative to: 3 µM ionomycin).
With `CCC(=CCc1c(O)cc2c(c1O)C(=O)CC(c1cc(O)ccc1OC)O2)CC` (stereo not shown) the inhibition was 7.11% (HeLa; cell growth or viability, MTT; 6.25 µM, 48 h).
`CNS(=O)(=O)Nc1nccc(Cc2c(C)c3ccc(Oc4ncccc4F)cc3oc2=O)c1F` gave an IC50 of 83.6 nM (LoVo; cell viability; 7 days).
`Cc1cc(Cl)cc(-c2ccnc3cc(CN4C(=O)C5C(C4=O)C5(C)C)sc23)c1C[C@@H]1CNCCO1` (stereo partly shown): “viable cells (annexin V-/PI-)” 84.5% and 83.3% and 91.7% (CHP-212 resistant cells (pooled); annexin V-PI flow cytometry; 0.3 µM, 48 h).
With `CCN(C(=O)c1cc(F)ccc1Oc1nncnc1N1CCC2(C1)CN([C@H](CCCN(C)CCOC)C(C)C)C2)C(C)C` the GI50 was greater than 10000 nM (CLS-439; cell growth; 72 h).
`CN(C12CCCC(C)(CCC3C1CC3(C)C)C2)S(=O)(=O)c1ccccc1` (stereo not shown) gave an inhibition of less than 50% (HT-29; cell growth or viability, CCK-8; 10 µM).
`CC(O)CNc1cc(=O)oc2ccccc12` (stereo not shown): “calcium mobilisation signal” 2.09 ± 0.62 (COS-7 (untransfected); 500 µM, unit not given; relative to: 3 µM ionomycin).
For `O=C(C[Se]C(=O)c1cc2ccccc2s1)Nc1cccc(C(F)(F)F)c1`, “mean growth percent” read -81% (NCI60 leukemia subpanel; cell growth; 10 µM, 48 h, one-dose).
With `CC12CCCC(NS(=O)(=O)c3ccc(CCN)cc3)(C1)C1CC(C)(C)C1CC2` (stereo not shown) the inhibition was less than 50% (HT-29; cell growth or viability, CCK-8; 10 µM).
`COC1CCN(C(=O)/C=C/c2nn(Cc3cccc(C(F)(F)F)c3)c3nc(N(C)C)ncc23)CC1` gave an EC50 of greater than 30000 nM (FLO-1; cell growth or viability, resazurin; 5 days).
The TGI of `COc1ccc2c(c1)c(CC(=O)[Se]CC(=O)Nc1cccc(C(F)(F)F)c1)c(C)n2C(=O)c1ccc(Cl)cc1` is reported as 3560 nM (NCI60 NSCLC subpanel mean; cell growth).
`COc1ccc(COC[C@](O)(CNCc2ccccc2)[C@@H]2CC[C@@H](C)C[C@H]2OCc2ccc(OC)cc2)cc1` has an inhibition of 98.9% (HeLa; cell growth or viability, MTT; 10 µM, 72 h).
The inhibition of `CN(C12CCCC(C)(CCC3C1CC3(C)C)C2)S(=O)(=O)c1ccc(N)cc1` (stereo not shown) is reported as less than 50% (HT-29; cell growth or viability, CCK-8; 10 µM).
`C[N+](C)(CCOCCOCCOCCNC(=S)Nc1ccc(C[C@H]2CN(CC(=O)[O-])CCN(CC(=O)[O-])CCN2CC(=O)[O-])cc1)C[c-]1cccc1.[64Cu+2].[Fe+2].c1cc[cH-]c1`: “radioligand remaining in medium” 99.7% (BxPC-3; 6 h, 37 °C).
With `N#C[C@@H]1CCCN1C(=O)CNC(=O)c1ccnc2ccc(OCCCN3CCN(C(=O)CCc4ccc5c(c4)CN4CCN6CC(=O)[O][68Ga-]([O]C(=O)C4)([O]5)[O]c4ccc(CCC(=O)N5CCN(CCCOc7ccc8nccc(C(=O)NCC(=O)N9CCC[C@H]9C#N)c8c7)CC5)cc4C6)CC3)cc12` the internalized fraction was 79.4 ± 2% (HT1080 cells expressing human FAP; 30 min, 37 °C).
`CCC(=CCc1c(O)cc2c(c1O)C(=O)CC(c1cccc(OC)c1O)O2)CC` (stereo not shown) gave an inhibition of 96.3% (HeLa; cell growth or viability, MTT; 50 µM, 48 h).
For `CC(C)c1ccc(N(C)c2ccc3c(c2)OCC[C@H]3CNc2cnccc2C(=O)O)cc1`, the IC50 was 57.8 nM (LoVo; cell growth or viability, ATP luminescence; 7 days).
For `[BH3-][P+]1(c2ccccc2)CCCCC1`, “early apoptotic cells” read 2.85% (HaCaT; annexin V/PI flow cytometry; IC50, 72 h).
For `Cn1ncc2cc(-c3cncc(Cl)c3N3CCC4(CCNC4=O)CC3)ccc21`, “log2 fold change” read 1.38 (LS174T; gene expression, microarray, item: POU2AF1 (BOB1) mRNA; concentration not given, 4 h; relative to: untreated cells).
With `CC(=O)N[C@@H](CC(=O)O)C(=O)N[C@@H](Cc1ccc(I)cc1)C(=O)N[C@@H](C)C(=O)N[C@@H](CC(=O)O)C(=O)COC(=O)c1c(C)cccc1C` the cell lysis was 48.1% and 35.2% (THP-1 cells, LPS-primed; pyroptosis, LDH release; 25 µM, LPS 1 µg/mL, 4 h, together with: nigericin 5 µM, 2 h).
`C[C@@H]1CC[C@@H]([C@@](O)(CNCc2ccc(F)cc2)COCc2ccccc2)[C@H](OCc2ccccc2)C1` has an inhibition of 97.7% (HeLa; cell growth or viability, MTT; 10 µM, 72 h).
With `N#C[C@@H]1CC(F)(F)CN1C(=O)CNC(=O)c1ccnc2ccc(OCCCN3CCN(C(=O)CCc4ccc(O)c(CN5CCN6CC(=O)[O][Al-]([18F])([O]C(=O)C5)[O]c5ccc(CCC(=O)N7CCN(CCCOc8ccc9nccc(C(=O)NCC(=O)N%10CC(F)(F)C[C@H]%10C#N)c9c8)CC7)cc5C6)c4)CC3)cc12` (stereo partly shown) the internalized fraction was 74.8 ± 2.8% (HT1080 cells expressing human FAP; 15 min, 37 °C).
The inhibition of `CCC(=CCc1c(O)cc2c(c1O)C(=O)CC(c1cccc(O)c1OC)O2)CC` (stereo not shown) is reported as 0.632% (HeLa; cell growth or viability, MTT; 0.781 µM, 48 h).
The cell death of `CSC(=S)N/N=C(\C)c1ccc(Nc2nnc(-c3ccc(Cl)cc3)c3ccccc23)cc1` is reported as 92.1% (HepG2; cell growth or viability, MTT; 5 µM).
Under “mean lipid content”, `COC(=O)C1=C(C)Oc2cc(OC)ccc2C1C(C(C)=O)C(=O)OC` (stereo not shown) is recorded as 0.657 OD492 (3T3-L1 mature adipocytes; lipolysis, Oil Red O staining; IC20).
The inhibition of `CCC(=CCc1c(O)cc2c(c1O)C(=O)CC(c1c(O)cccc1OC)O2)CC` (stereo not shown) is reported as 0.771% (HeLa; cell growth or viability, MTT; 0.781 µM, 48 h).
The inhibition of `CC12CCCC(NS(=O)(=O)c3ccccc3N)(C1)C1CC(C)(C)C1CC2` (stereo not shown) is reported as less than 50% (HT-29; cell growth or viability, CCK-8; 10 µM).
`CC[C@H](C)[C@H](NC(=O)[C@H](CO)NC(=O)[C@H](Cc1ccc(O)cc1)NC(=O)[C@H](CC(=O)O)NC(=O)[C@H](CO)NC(=O)[C@@H](NC(=O)[C@H](Cc1ccccc1)NC(=O)[C@@H](NC(=O)CNC(=O)[C@H](CCC(=O)O)NC(=O)[C@H](C)NC(=O)[C@@H](N)Cc1ccc(O)cc1)[C@@H](C)O)[C@@H](C)CC)C(=O)N[C@@H](C)C(=O)N[C@@H](CCSC)C(=O)N[C@@H](CC(=O)O)C(=O)N[C@@H](CCCCN)C(=O)N[C@H](C(=O)N[C@@H](Cc1c[nH]cn1)C(=O)N[C@@H](CCC(N)=O)C(=O)N[C@@H](CCC(N)=O)C(=O)N[C@@H](CC(=O)O)C(=O)N[C@@H](Cc1ccccc1)C(=O)N[C@H](C(=O)N[C@@H](CC(N)=O)C(=O)N[C@@H](Cc1c[nH]c2ccccc12)C(=O)N[C@@H](CC(C)C)C(=O)N[C@@H](CC(C)C)C(=O)N[C@@H](C)C(=O)N[C@@H](CCC(N)=O)C(=O)N[C@@H](CCCCN)C(=O)NCC(=O)N[C@@H](CCCCN)C(=O)N[C@@H](CCCCN)C(=O)N[C@@H](CC(N)=O)C(=O)N[C@@H](CC(=O)O)C(=O)N[C@@H](Cc1c[nH]c2ccccc12)C(=O)N[C@@H](CCCCN)C(=O)N[C@@H](Cc1c[nH]cn1)C(=O)N[C@@H](CC(N)=O)C(=O)N[C@H](C(=O)N[C@H](C(=O)N[C@@H](CCC(N)=O)C(=O)O)[C@@H](C)O)[C@@H](C)CC)C(C)C)[C@@H](C)CC`: “GIPR homomer subcellular localisation” “no effect” (HeLa, SYFP2-GIPR and GIPR-mTurquoise; TIRF microscopy; 1 µM).
The cell lysis of `CC(=O)N[C@@H](CC(=O)O)C(=O)N[C@@H](C)C(=O)N[C@@H](Cc1ccc(N)cc1)C(=O)N[C@@H](CC(=O)O)C(=O)COC(=O)c1c(C)cccc1C` is reported as 96.2% and 79.6% (THP-1 cells, LPS-primed; pyroptosis, LDH release; 25 µM, LPS 1 µg/mL, 4 h, together with: nigericin 5 µM, 2 h).
`CN1CCCNC(=O)c2cccc(c2)C(=O)NCCCN(C)CCCNc2cccc3c2C(=O)c2cccc(c2C3=O)NCCC1` — result for “log2 fold change”: -0.725 (SAS; RNA-Seq, item: NOC3L mRNA; 1 µM, 6 h; relative to: untreated cells).
`CC(=NN=c1sc(C(=O)c2ccccc2)nn1-c1ccccc1)c1ccc(S(=O)(=O)N2CCC(C)CC2)cc1` — result for “cells in G2/M phase”: 31.6% (MCF7; flow cytometry; 4.29 µM (IC50), 72 h).
With `CC(C)(C)c1cc(-c2ccc3cccnc3n2)nc(-c2ccc3cccnc3n2)c1.COc1ccncc1.[Cl-].[Cl-].[Ru+2].c1ccc2cc3nc4c5cccnc5c5ncccc5c4nc3cc2c1` the EC50 was 286 ± 17 nM (SK-MEL-28; cell viability; visible light 400-700 nm, 100 J/cm2).
The inhibition of `CCC(=CCc1c(O)cc2c(c1O)C(=O)CC(c1ccccc1O)O2)CC` (stereo not shown) is reported as 4.49% (HeLa; cell growth or viability, MTT; 3.75 µM, 48 h).
For `COc1ccc(NC(=O)c2ccc3[nH]c(-c4ccc(N(C)C)cc4)nc3c2)cn1`, “dead cell to confluence ratio” read 10.5 and 2.44 and 74.1 (HCEC-hTERT; IncuCyte; concentration not given, 20 h).
`O=S(=O)(N[C@H]1CCO[C@@H](C2c3ccc(F)cc3CCc3cc(F)ccc32)C1)c1ccc(OC(F)(F)F)cc1` — result for “total PARP level”: “decreased” (D425; immunoblot; concentration not given, 24 h).
The inhibition of `COc1ccc(CNC[C@@](O)(COCc2ccc(OC)cc2)[C@@H]2CC[C@@H](C)C[C@H]2OCc2ccc(OC)cc2)cc1` is reported as 97.3% (A2780; cell growth or viability, MTT; 10 µM, 72 h).
`CN1CCN(C(=O)c2cn(C34CCCC(C)(CCC5C3CC5(C)C)C4)nn2)CC1` (stereo not shown) has an inhibition of less than 50% (HT-29; cell growth or viability, CCK-8; 10 µM).
`COc1ccc(C2CC(=O)c3c(cc(O)c(CC=C(C)C)c3O)O2)cc1` (stereo not shown) gave an inhibition of 10.4% (HeLa; cell growth or viability, MTT; 6.25 µM, 48 h).
For `Cc1ncsc1-c1ccc(C(C)NC(=O)C2CC(O)CN2C(=O)C(NC(=O)CCCCCCCCCCN2CCCC(Nc3ncc(Cl)c(Nc4ccccc4S(=O)(=O)C(C)C)n3)C2)C(C)(C)C)cc1` (stereo not shown), “log2 fold change” read -1.22 (22Rv1; RNA-seq, item: MIER2 mRNA; concentration not given; relative to: DMSO).
With `CC(C)(C)c1ccc([C@H](O)C[C@H](CO)NC(=O)CCCCCOc2ccc3ccccc3c2)cc1` the SM/Cer ratio was 17 ,1 (HeLa; HPLC-MS-MS lipidomics, item: C18 SM and ceramide; 1 µM, 24 h; relative to: SM over Cer).
`CC(Br)C(=O)NC12CCCC(C)(CCC3C1CC3(C)C)C2` (stereo not shown) has an inhibition of less than 50% (HT-29; cell growth or viability, CCK-8; 10 µM).
`CCN(CC)CC(=O)Nc1cccc(-n2cc(-c3ccc4ccc(-c5cn(-c6cccc(NC(=O)CN(CC)CC)c6)nn5)cc4c3)nn2)c1` gave a fold regulation of -1.39 fold (RCC4; PCR angiogenesis array, item: TGFB1; 5 x IC50, 6 h, normoxia; relative to: untreated).
Under “cleaved caspase 9 level”, `O=S(=O)(N[C@H]1CCO[C@@H](C2c3ccccc3CCc3ccccc32)C1)c1ccc(OC(F)(F)F)cc1` is recorded as “increased” (D341; immunoblot; concentration not given, 72 h).
